# Assay results of several laboratories.
# Compare with care: the assays were run in different laboratories. “And” joins repeats or separate records; there may be more than shown. ± marks the error that the study gave.
# B1: cystatin A; sequence looked up; chain MIPGGLSEAKPATPEIQEIVDKVKPQLEEKTNETYGKLEAVQYKTQVVAGTNYYIKVRAGDNKYMHLKVFKSLPGQNEDLVLTGYQVDKNKDDELTGF
Molecule,tested on,assay,test system,conditions,scale,measurement,result
GWTLNSAGYLLGPRRIDHLLMIKEMPIARGREEAPGA / YAVDNHRSFNDKHGFT-NH2 (C-amide),,,"Gnaq flox control mice, DSS colitis","ip, 3 µM, 2% DSS",,colon length,6.8 cm and 6 cm and 6.7 cm and 5.8 cm and 6.5 cm
pertussis toxin,,immunostaining,"humanized mouse, SAH model, meningeal F4/80+ macrophages",dose not given,,p-PKC level,17.6 MFI
DPDPE,,RP-HPLC,HALO Phenyl-hexyl column,"25 µM, formic acid/acetonitrile, 10 min gradient",,retention time,3.98 min
GWTLNSAGYLLGPHAVDNHRSFNDKHGFT-NH2 (C-amide),,,"peptide, Arrb2 intestinal cKO mice, DSS colitis","ip, 3 µM, 2% DSS",,colon length,5.3 cm and 5.5 cm and 5.2 cm and 5 cm
colistin,Aspergillus fumigatus,,"pkcA G579R, solid minimal medium","10 µM, 4 days, 37 °C",reference: untreated,radial growth ratio,0.974 and 1 and 0.975
aspterric acid,,,Arabidopsis thaliana Col-0 seedlings,"50 µg/mL, added: branched-chain amino acids",,root length,0.83 cm and 0.81 cm and 0.84 cm and 0.85 cm and 0.87 cm and 0.8 cm and 0.86 cm
heparin sodium,,,healthy Chinese adult volunteers,"continuous intravenous infusion, 8 IU/kg/h, 5 days",,subjects with mild AEs,50%
Polymyxin B,,,mouse,"intraperitoneal, 20 mg/kg single dose, day 5",,survival,100%
hexaarginine,PorA peptide pore,"peptide binding, planar bilayer single-channel recording",,"0.5 µM, pH 7.4, +15 mV, trans side, 150 mM KCl",,koff,2300 ± 250 s⁻¹
(−)-antroquinonol A,PANC-1,"cytotoxicity, MTS",,72 h,,IC50,> 25 µM
HVLVMSATRR,,,"peptide, C57BL/6J mice, male, serum","subcutaneous osmotic pump, 3 mg/kg/day peptide basis, 8 weeks",,total cholesterol,72 mg/dL and 91 mg/dL
nonaarginine,PorA peptide pore,"peptide binding, planar bilayer single-channel recording",,"0.5 µM, pH 7.4, -30 mV, cis side, 150 mM KCl",,koff,1110 ± 111 s⁻¹
insulin human,,item: CAMK1D mRNA,"EcoHIV-infected mouse, brain","i.p., dose not given",reference: PBS,fold change,1.06
B1 (cystatin A),,"peptide binding, SILAC pull-down",,concentration not given,reference: non-acetylated over acetylated NIT1 peptide,log2 fold change,0.269
glucagon,,isotope dilution,"human, type 1 diabetes","intravenous infusion, 0.12 ng/kg/min, 160 to 180 min",,splanchnic extraction,24.6 ± 3.3%

# Some of these lines once more:
Molecule,tested on,assay,test system,conditions,scale,measurement,result
nonaarginine,PorA peptide pore,"peptide binding, planar bilayer single-channel recording",,"0.5 µM, pH 7.4, -30 mV, cis side, 150 mM KCl",,koff,1110 ± 111 s⁻¹
insulin human,,item: CAMK1D mRNA,"EcoHIV-infected mouse, brain","i.p., dose not given",reference: PBS,fold change,1.06
